{"data": "Experimental data pooled from the literature", "note": "Lines come from different studies, so protocols differ. Numbers after ± are the reported error."}
{"Structure (SMILES)": "CCCCCCCCCCCCC(=O)O.O=C1CCCC2C3CCCN4CCCC(CN12)C34 (stereo not drawn)", "test": "electrical conductivity", "test system": "water", "setting": "298.15 K, critical micelle concentration", "endpoint": "entropic term −TΔS of micellization", "value": "-26.5 kJ/mol"}
{"Structure (SMILES)": "O=C(NCCCCCn1ccc2ccccc21)Oc1ccccc1", "test system": "porcine plasma", "setting": "20 µM, 30 min", "endpoint": "parent remaining", "value": "91 ± 7%"}
{"Structure (SMILES)": "CSCC[C@H](NC(=O)[C@H](CC(N)=O)NC(=O)[C@@H](N)Cc1ccccc1)C(=O)N[C@@H](CCC(N)=O)C(=O)N[C@@H](C)C(=O)N[C@@H](CCC(N)=O)C(=O)N[C@@H](CCCNC(=N)N)C(=O)N[C@@H](CCCNC(=N)N)C(=O)N[C@@H](Cc1ccccc1)C(=O)N[C@@H](Cc1ccc(O)cc1)C(=O)N[C@@H](CCC(=O)O)C(=O)N[C@@H](C)C(=O)N[C@@H](CC(C)C)C(=O)N[C@@H](Cc1c[nH]cn1)C(=O)N[C@@H](CC(=O)O)C(=O)NCC(=O)NCC(=O)NCC(=O)NCC(=O)N[C@@H](CO)C(=O)N[C@@H](C)C(=O)N[C@@H](CCC(=O)O)C(=O)N[C@@H](C)C(=O)N[C@@H](CCC(=O)O)C(=O)N[C@@H](C)C(=O)N[C@@H](CCCCN)C(=O)N[C@@H](C)C(=O)N[C@@H](CCCCN)C(=O)N[C@@H](C)C(=O)N[C@@H](CCC(=O)O)C(=O)N[C@@H](C)C(=O)N[C@@H](CCC(=O)O)C(=O)N[C@@H](C)C(=O)N[C@@H](CCCCN)C(=O)N[C@@H](C)C(=O)N[C@@H](CCCCN)C(=O)O", "test": "TEM", "test system": "PBS", "setting": "0.05 mg/mL", "endpoint": "fibril width, second population", "value": "28.3 ± 8.18 nm"}
{"Structure (SMILES)": "CCCCCCCC(=O)OC[C@H](NC(=O)[C@H](CO)NC(=O)CN)C(=O)N[C@@H](Cc1ccccc1)C(=O)N[C@@H](CC(C)C)C(=O)N[C@@H](CO)C(=O)N1CCC[C@H]1C(=O)N[C@@H](CCC(=O)O)C(=O)N[C@@H](Cc1cnc[nH]1)C(=O)N[C@@H](CCC(N)=O)C(=O)N[C@@H](CCCNC(=N)N)C(=O)N[C@H](C(=O)N[C@@H](CCC(N)=O)C(=O)N[C@@H](CCC(N)=O)C(=O)N[C@@H](CCCNC(=N)N)C(=O)N[C@@H](CCCCN)C(=O)N[C@@H](CCC(=O)O)C(=O)N[C@@H](CO)C(=O)N[C@@H](CCCCN)C(=O)N[C@@H](CCCCN)C(=O)N1CCC[C@H]1C(=O)N1CCC[C@H]1C(=O)N[C@@H](C)C(=O)N[C@@H](CCCCN)C(=O)N[C@@H](CC(C)C)C(=O)N[C@@H](CCC(N)=O)C(=O)N1CCC[C@H]1C(=O)N[C@@H](CCCNC(=N)N)C(=O)O)C(C)C", "test": "ELISA", "test system": "healthy humans, plasma", "setting": "continuous intravenous infusion, 1 µg/kg/h, 65 min", "endpoint": "Cmax", "value": "3.87 ± 3.46 ng/mL"}
{"Structure (SMILES)": "O=C([O-])CN(CCN(CC(=O)[O-])CC(=O)[O-])CCN(CC(=O)[O-])CC(=O)[O-].[177Lu+3]", "test system": "human serum", "setting": "1.5 h, 37 °C, together with: 177Lu", "endpoint": "radiometal bound to chelator", "value": "77%"}
{"Structure (SMILES)": "CC[C@@H](C)[C@@H](NC(=O)[C@@H](C)NC(=O)[C@@H](CCCCN)NC(=O)[C@@H](CC(C)C)NC(=O)[C@@H](C)NC(=O)[C@H](NC(=O)[C@@H](Cc1c[nH]cn1)NC(=O)[C@@H](CC(C)C)NC(=O)[C@H](NC(=O)[C@H](NC(=O)[C@@H](CCCCN)NC(=O)[C@@H](CCCCN)NC(=O)[C@@H](C)NC(=O)[C@@H](CO)NC(=O)[C@@H](CCCCN)NC(=O)[C@@H](Cc1ccccc1)NC(=O)[C@H](NC(=O)[C@@H](CCCCN)NC(=O)[C@@H](CC(C)C)NC(=O)[C@@H](Cc1ccccc1)NC(=O)[C@@H](CO)NC(=O)[C@@H](CCCCN)NC(=O)[C@@H](Cc1c[nH]c2ccccc12)NC(=O)[C@@H](CCCCN)NC(C)=O)[C@H](C)O)[C@H](C)O)C(C)C)[C@H](C)O)C(=O)N[C@H](CO)C(=O)N[C@H](CO)C(N)=O", "test": "RP-HPLC temperature profiling", "setting": "pH 2, 5-80 °C, unit not given", "how to read": "reference: control peptide", "endpoint": "self-association parameter", "value": 2.78}
{"Structure (SMILES)": "COc1ccc(C2=Nn3c(N/N=C4/C(=O)Nc5ccccc54)nnc3SC2)cc1", "test system": "chick embryo, chorioallantoic membrane", "setting": "40 µM", "endpoint": "toxicity", "value": "toxic"}
{"Structure (SMILES)": "NC(=O)[C@@H](CCCCNC(=O)CNC(=O)CCC(=O)NCCc1c[nH]cn1)NC(=O)[C@@H](Cc1ccc(O)cc1)NC(=O)[C@@H](CCCCNC(=O)CNC(=O)CCC(=O)NCCc1c[nH]cn1)NC(=O)Cc1ccc(CN2CCN(CC(=O)O)CCN(CC(=O)O)CC2)cc1 [fluorine-18 labelled]", "test system": "tumour-bearing nude mice", "setting": "intravenous, 3 h, TF2 pretargeting", "how to read": "reference: tumour over blood", "endpoint": "tissue ratio", "value": "1240 ± 490"}
{"Structure (SMILES)": "Cc1ccc(/C=C/C(=O)O)cc1-c1cc2c(cc1C)C(C)(C)CCC2(C)C", "test system": "Sprague-Dawley rat, male, plasma", "setting": "oral, 100 mg/kg, 24 h, sesame oil vehicle", "endpoint": "HDL level", "value": "43 ± 9.5 mg/dL"}
{"Structure (SMILES)": "CN(C)C(CNC(=O)Nc1cc(C(F)(F)F)ccc1N1CCOCC1)c1ccncc1 (stereo not drawn)", "test system": "mouse, serum", "setting": "intraperitoneal, 180 mg/kg single dose", "endpoint": "creatine kinase", "value": "8140 U/L"}
{"Structure (SMILES)": "CC[C@@]1(O)C(=O)OCc2c1cc1n(c2=O)Cc2c-1nc1cc(F)c(C)c3c1c2[C@@H](NC(=O)CO)CC3", "test system": "PAMPA", "setting": "5 µM, 4 h, pH 7.4", "endpoint": "Papp", "value": "12.2 ×10⁻⁶ cm/s"}
{"Structure (SMILES)": "CC(C)C[C@H](NC(=O)[C@H](CCCNC(=N)N)NC(=O)CNC(=O)[C@@H](N)CC(C)C)C(=O)N[C@@H](CO)C(=O)N[C@@H](CCC(N)=O)C(=O)N[C@@H](CCC(=O)O)C(=O)N[C@@H](CC(C)C)C(=O)N[C@@H](Cc1c[nH]cn1)C(=O)N[C@@H](CCCNC(=N)N)C(=O)N[C@@H](CC(C)C)C(=O)N[C@@H](CCC(N)=O)C(=O)N[C@H](C(=O)N[C@@H](Cc1ccc(O)cc1)C(=O)N1CCC[C@H]1C(=O)N[C@@H](CCCNC(=N)N)C(=O)N[C@H](C(=O)N[C@@H](CC(N)=O)C(=O)N[C@H](C(=O)NCC(=O)N[C@@H](CO)C(=O)N[C@@H](CC(N)=O)C(=O)N[C@H](C(=O)N[C@@H](Cc1ccc(O)cc1)C(N)=O)[C@@H](C)O)[C@@H](C)O)[C@@H](C)O)[C@@H](C)O", "test system": "TgCRND8 mice", "setting": "icv, dose not given, 5 months", "endpoint": "mortality", "value": "20%"}
{"Structure (SMILES)": "CCCS(=O)(=O)c1ccc2[nH]c(NC(=O)OC)nc2c1", "test system": "human liver mitochondrial preparation", "setting": "1 µM, 30 min, 0.5 mg/mL protein", "endpoint": "percent metabolized", "value": "11.1%"}
{"Structure (SMILES)": "CC[C@H](C)C(=O)N1CCC(NC(=O)Nc2ccc(OC(F)(F)F)c(F)c2)CC1", "test system": "healthy volunteers, both sexes", "setting": "oral, 8 mg single dose, fasted state", "endpoint": "participants with any Severe TEAE", "value": "0%"}
{"Structure (SMILES)": "CCCC(=O)OC1O[C@@H]2O[C@@]3(C)CC[C@H]4[C@H](C)CCC([C@H]1C)[C@@]24OO3 (stereo partly drawn)", "test system": "Tg(fli1:EGFP) zebrafish embryos", "setting": "15 µg/mL, up to 48 hpf", "endpoint": "dead embryos", "value": "1 count"}
{"Structure (SMILES)": "CCCC[C@H]1C(=O)N(C)[C@@H](CCCC)C(=O)N[C@@H](CCCNC(=O)CN2CCN(CC(=O)O)CCN(CC(=O)O)CCN(CC(=O)O)CC2)C(=O)N[C@H](C(=O)NCC(N)=O)CSCC(=O)N[C@@H](Cc2ccc(O)cc2)C(=O)N(C)[C@@H](C)C(=O)N[C@@H](CC(N)=O)C(=O)N2CCC[C@H]2C(=O)N[C@@H](Cc2c[nH]cn2)C(=O)N[C@@H](CC(C)C)C(=O)N(C)CC(=O)N[C@@H](Cc2c[nH]c3ccccc23)C(=O)N[C@@H](CO)C(=O)N[C@@H](Cc2c[nH]c3ccccc23)C(=O)N1C [gallium-68 labelled]", "test": "static PET", "test system": "NOD/SCID mice, CHO-hPD-L1 xenograft, CHO-hPD-L1 tumour", "setting": "intravenous, 1 h post injection, before atezolizumab treatment", "endpoint": "tumour uptake", "value": "5.33 ± 0.25 %ID/g"}
{"Structure (SMILES)": "O=C(NCCNCCO)c1cn(Cc2ccccc2)c2cc(OCc3ccc(C(F)(F)F)cc3)c(Cl)cc2c1=O", "test": "metabolic stability", "test system": "male CD-1 mouse, liver microsomes", "setting": "1 µM", "endpoint": "microsomal CLint", "value": "< 11.6 µL/min/mg"}
{"Structure (SMILES)": "O=c1cc(-c2ccccc2)oc2c(Br)c(O)c(O)c(O)c12", "test system": "C57BL/6 mouse, plasma", "setting": "intravenous, 10 mg/kg, single dose", "endpoint": "MRT(0-t)", "value": "1.5 h"}
{"Structure (SMILES)": "COc1cc(NC(=O)C(=O)c2c(C)n(Cc3ccc(Cl)cc3)c3ccc(C)cc23)ccn1", "test system": "male cynomolgus monkey, plasma", "setting": "intravenous, 1 mg/kg", "endpoint": "C0", "value": "2270 ng/mL"}
{"Structure (SMILES)": "C[C@]12CC[C@H](O)CC1CCC1C2[C@H](O)C(=O)[C@]2(C)[C@@H](c3ccc(=O)oc3)CC[C@]12O (stereo partly drawn)", "test": "sulfation, substrate", "test system": "rat liver cytosol", "setting": "pH 7.4", "endpoint": "Km", "value": "233 ± 28.4 µM"}
{"Structure (SMILES)": "Cc1ccccc1CN1CCC(O)(c2ccc(Cl)c(C(F)(F)F)c2)CC1", "test system": "female BALB/c mouse, serum", "setting": "intraperitoneal, 50 mg/kg", "endpoint": "elimination half-life", "value": "192 min"}
{"note": "For quick reference, copied from above:"}
{"Structure (SMILES)": "NC(=O)[C@@H](CCCCNC(=O)CNC(=O)CCC(=O)NCCc1c[nH]cn1)NC(=O)[C@@H](Cc1ccc(O)cc1)NC(=O)[C@@H](CCCCNC(=O)CNC(=O)CCC(=O)NCCc1c[nH]cn1)NC(=O)Cc1ccc(CN2CCN(CC(=O)O)CCN(CC(=O)O)CC2)cc1 [fluorine-18 labelled]", "test system": "tumour-bearing nude mice", "setting": "intravenous, 3 h, TF2 pretargeting", "how to read": "reference: tumour over blood", "endpoint": "tissue ratio", "value": "1240 ± 490"}
{"Structure (SMILES)": "Cc1ccc(/C=C/C(=O)O)cc1-c1cc2c(cc1C)C(C)(C)CCC2(C)C", "test system": "Sprague-Dawley rat, male, plasma", "setting": "oral, 100 mg/kg, 24 h, sesame oil vehicle", "endpoint": "HDL level", "value": "43 ± 9.5 mg/dL"}
